# Measurements collected from several papers.
# Every numbered part comes from another study and shows a few of its results, in no order.

# Study 1
# Target: Histone acetyltransferase KAT6A, winged helix 1, GST fusion (KAT6A, Homo sapiens, UniProt Q92794, residues 1-85)
# Method: protein binding microarray
# Molecule type: double-stranded DNA, one strand shown
# Sample: in vitro
# Tested at: not given
# Setting: 8-mer, flanks averaged, mean of 2 arrays, mostly near background
# Reference: not given
# Direction: higher = stronger binding
# Residues (chain): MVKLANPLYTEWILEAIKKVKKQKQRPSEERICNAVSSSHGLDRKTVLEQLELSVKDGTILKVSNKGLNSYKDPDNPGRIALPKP
Strand,E-score
CACAGACG,0.015
AGAACAGA,-0.149
CGCTAGTA,0.25
GTAGGGCA,-0.0762
AGGCTTAT,-0.14
AGATAGGG,-0.18
ATTTACAC,-0.0426
ATGGACCC,-0.0634
CCGACCCC,0.26
CACTCCAA,-0.191
ATAGGGCC,0.0309
CCATATCA,-0.121
ATTTCCCC,0.0177
GAAATACA,-0.174
ATATTGAC,0.0607
AGCTCCCC,-0.0882
ACCAGTAA,-0.0233
AAACACTC,-0.049
ATGCGGCA,0.245
AAGACACT,-0.0989
AGTGTTCA,-0.092

# Study 2
# Target: Sal-like protein 4, full length isoform B (SALL4, Homo sapiens, UniProt Q9UJQ4-2, residues 1-616)
# Method: universal PBM
# Molecule type: double-stranded DNA, one strand shown
# Sample: in vitro
# Tested at: not given
# Setting: 8-mer, flanks averaged, mean of replicates
# Direction: higher = stronger binding
Strand,E-score
ATCCATTG,0.131
CGCGGGCA,-0.282
CGTAGAAG,0.0309
TAAGACGA,0.0546
CGTCTATC,0.0624
ATATAAGC,0.319
AGAAACTA,0.079
CTATAAGA,0.159
ACTAAGGA,0.00724
CTTACATC,0.104
ACGCGCGA,-0.266
GATATCGC,0.115
CTGCTCAC,-0.236
GTCAAAAC,-0.0722
CTAACTAG,0.123
CGCCGGCC,-0.405
AAGGTGCA,-0.026
AACTAGGC,-0.0517
CCCTCATA,0.0419
ACCCACAA,0.0163
AACGCTGT,0.0207
CTAGGTAC,0.0252
CTTAGCGA,-0.145
TGCACCCA,-0.128
CGAATTAC,0.0728

# Study 3
# Target: Interferon regulatory factor 5, full length, phosphomimetic (IRF5, Homo sapiens, UniProt Q13568-2, residues 1-514, K96S/S451D/S453D/S456D/S462D)
# Method: protein-binding microarray
# Molecule type: double-stranded DNA, one strand shown
# Sample: in vitro
# Tested at: 250 nM
# Setting: 60-bp whole probe
# Added: salmon DNA 0.4 mg/ml
# Reference: random background probes
# Direction: higher = stronger binding
# Constant ends, left off below: GCCTAGCAC … GTCTTGATTCGCTTGACGCTGCTG
Strand,log fluorescence
GACGGTATTGGGTATCGGGACGTGCTA,0.764 z-score
TTAGCACTGGACTATCGGTTAGTGCTA,5.58 z-score
GGGCCACAAAGCAATAAGAAGTGCTAG,-0.444 z-score
TTAGAACTGGGGTATCGGTTAGTGCTA,2.65 z-score
TTAGGTATTGACTTTCGGTTAGTGCTA,9.31 z-score
TCACTTTTGCTTTACTGACTGTGCTAG,2.85 z-score
TCACCTCTTTTTTTGGTACTGTGCTAG,0.963 z-score
GACGGTTCCTGTTTCGGGACGTGCTAG,3.34 z-score
GACGGATTCCTTATCCTGACGTGCTAG,-0.105 z-score
TTAGGTTTCGACTTCCGGTTAGTGCTA,7.32 z-score
CACTCTTGCTTTTTAGATCGGTGCTAG,0.692 z-score
TTAGACCTCAGTTTCGATTAGTGCTAG,9.52 z-score
TCATTTTTTTTCTTTAAACTGTGCTAG,1.32 z-score
GACGTTTCCAGTTTCGAGACGTGCTAG,5.16 z-score
TTAGGTCTCGGAATGGGTTAGTGCTAG,-0.00836 z-score
TCATTTTTGTTGTTTTTACTGTGCTAG,2.23 z-score
TTAGGTATCCTTAACCTTTAGTGCTAG,0.124 z-score
GACGGACTGCTTTTCCTCACGTGCTAG,0.163 z-score
AGTTCTAAGGATTTCAGTTTGTGCTAG,0.633 z-score
TTAGGTTTCGGTCTAGGTTAGTGCTAG,10.6 z-score
TCATATTTGTTTCCATTACTGTGCTAG,1.96 z-score
GTCGGACTGGGTCTCGGGACGTGCTAG,-0.713 z-score
TTAGGTATCGGGTTTCGATTAGTGCTA,7.66 z-score
TTGGGTTTCGACTATCGGTTAGTGCTA,8.6 z-score
TGAGGACTGCTACTGCTTTAGTGCTAG,-0.437 z-score

# Study 4
# Target: Max dimerization protein 1, bHLH-zipper, MAX partner unstated (MXD1, Homo sapiens, UniProt Q05195, residues 56-136)
# Method: protein-binding microarray
# Molecule type: double-stranded DNA, one strand shown
# Sample: in vitro
# Tested at: not given
# Setting: k-mer, scored over probes, only values ≥0.25
# Direction: higher = stronger binding
# Target sequence (chain): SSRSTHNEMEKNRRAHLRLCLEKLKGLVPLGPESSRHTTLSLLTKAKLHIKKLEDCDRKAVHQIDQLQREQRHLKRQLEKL
Strand,E-score
ATCACGAG,0.295
ACACGCTC,0.305
CGTGTATC,0.349
CACATGTG,0.474
CGTGCGTA,0.258
CACGCTCG,0.37
CATGGTAC,0.379
CATGCCCA,0.324
CATGTGTA,0.437
CGCGTGTA,0.443
CACACGTG,0.485
ACACATGT,0.467
CGTGTTAA,0.297
AACGTGTC,0.371
CGTGTTCA,0.278
ACGCCCAC,0.271
GCGTGTTA,0.402
GCGCACGC,0.362
CCCGTGAC,0.279
CATGCGGA,0.419
CAGCATGA,0.373
ATGGGGTG,0.292
CGGCGTGC,0.373

# Study 5
# Target: RING finger protein unkempt homolog, zinc fingers 1-6, GST-SBP tag (UNK, Homo sapiens, UniProt Q9C0B0, residues 30-357)
# UniProt Q9C0B0, sequence (30-357, looked up): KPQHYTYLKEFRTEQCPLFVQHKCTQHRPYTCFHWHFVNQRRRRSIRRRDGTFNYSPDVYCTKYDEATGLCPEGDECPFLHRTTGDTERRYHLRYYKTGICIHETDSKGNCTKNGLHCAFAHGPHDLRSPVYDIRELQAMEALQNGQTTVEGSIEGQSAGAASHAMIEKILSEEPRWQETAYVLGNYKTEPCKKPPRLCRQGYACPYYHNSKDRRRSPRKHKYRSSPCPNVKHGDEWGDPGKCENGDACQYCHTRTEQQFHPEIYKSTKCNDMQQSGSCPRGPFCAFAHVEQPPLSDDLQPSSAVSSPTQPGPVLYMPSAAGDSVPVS
# Method: RNA Bind-n-Seq
# Molecule type: RNA
# Sample: in vitro
# Tested at: not given
# Setting: RNA with constant flanks, human and mouse sites, ends assumed
# Reference: input RNA pool
# Direction: higher = stronger binding
# Constant ends, left off below: GGGAGUUCUACAGUCCGACGAUC … CAACAGAGGAUUGAGCAUCA
Strand,bound/input enrichment
AGAUUUAAAGCUAGUCUACCAGAAGUAUUCUUUUGCAGUAAAGAAUGUUUGAAGUGUUCAUUUCUUCCUGUUCUUCCUCCUUCCACUCCCUUCAUGAUUUUGCUGUGAAAUACCAACUUG,0.117 ratio
AUUCCCAAAUCAGAAGAAAUGGCAUUCCGGGCGAUUUGUGUGUUGGUUGGAGUAUUUAUUUGUUCCAUUUGUGUACGAGGAUCUUCCCAGCCCCAAGCAAGAGUUUAUUUAACAUUUGAU,0.384 ratio
GUUCAUUUCCUGUUCACUACUAAUGGUGCUUCUCAUCCUCUGAUCUCUUCUCUCUCGUGUGUUAAACAAGUGUAUUAAAGAUGCUUCAUAAUGCCAACAACAUAGCAGGUCAGUGAACAU,0.807 ratio
GUGGAGCCGGCGGACGCCUCCGGUACCGAGAAAGCUUUCGAGCCAGCAACCGGCCGAGUGAUAGCUACUUUCACAUGUUCAGGAGAAAAGGAAGUAAAUUUGGCUGUUCAAAAUGCAAAG,0.152 ratio
CGAUCAGGGGAUAGUGAAGUUUACCAACUGGGUGAUGUCAGUCAAAAGACAACAUGGCACAGAAUAUCAGUAUUCCGGCCAGGCCUCAGAGACGUGGCAUAUCAAUAUGUGAAAAAGGGG,0.351 ratio
ACCAUUUUCGCGGUUCAGGCUUUGUGUGUAGUUCACUUACGGUAUUAAAUUAUUAUUCUGCUUAGCUUAUAAUAAGGAUAAUUGCAUUUAAAGAGGUUACUGAAUGUUACUCUGAAACUU,0.686 ratio
AACACUAAUGAGAGAUCAUGAUGCAGCCGUCCUUUUGGAUUUCUUUUUAAUAAUGUGUGACCCUUCACCUUUGAUCCCCUGACCUGCAUUACCUUGGUAACCAUUUCAUUUUUUAAUUUA,1.03 ratio
CGGGGCGCUCCUUCACGCCGUAGGCAAGCGGGGCGGCGGCUGCGGUACCUGCCCACCGGGAGCUUUCCCUUCCUUCUCCUGCUGCUGCUGCUCUGCAUCCAGCUCGGGGGAGGACAGAAG,0.171 ratio
AAGAUGCUUCAAAGUAUUAUUAAAAACAUAUGGAUCCCCAUGAAGCCCUACUACACCAAAGUUUACCAGGAGAUUUGGAUAGGAAUGGGGCUGAUGGGCUUCAUCGUUUAUAAAAUCCGG,0.241 ratio
AUCCGAAUUGGCAGGAAUGAGUGUGUGGUUGUCAUUAGGGUGGACAAAGAAAAAGGAUAUAUUGAUUUGUCAAAAAGAAGAGUUUCUCCAGAGGAAGCAAUCAAAUGUGAAGACAAAUUC,0.334 ratio
UCUCAGCUUCGGAGAAUGGAGUCUUCCAUCAAUCAUAUCUCACAGACUGUGGAUAUUCAUAAGGAGAAAGUGGCACGAAGAGAGAUUGGUAUUUUGACAACAAAUAAGAAUACAUCAAGA,0.229 ratio

# Study 6
# Target: RNA binding protein fox-1 homolog 2, RRM domain, GST-SBP tag (RBFOX2, Homo sapiens, UniProt O43251-10, residues 100-194)
# Method: RNA Bind-n-Seq
# Molecule type: RNA
# Sample: in vitro
# Tested at: 365 nM
# Setting: natural RNA segment, single round, ends assumed
# Reference: no-protein control
# Direction: higher = stronger binding
# Constant ends, left off below: GGGAGUUCUACAGUCCGACGAUC … UGGAAUUCUCGGGUGCCAA
# Target sequence (chain): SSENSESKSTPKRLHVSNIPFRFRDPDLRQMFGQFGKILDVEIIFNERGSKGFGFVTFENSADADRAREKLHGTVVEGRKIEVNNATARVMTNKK
Strand,RBNS enrichment (R)
CCUUGGCCUUUAGGUCCCUGGUGGAGGGAGAUGACCCAUGCCAGGUCCAGCACAAGAUGUGAAGAUUAAAUGCCUAUUCUUACUGAAGGUUUGAUGUGGAAUCAUGGCUG,0.553
CUUAUCUCACAGAAUUUUGAGUGUUGUAUUUGGCAAGUUCUGAGAUUUGCCUUCUGUCUUAUGCCAAACACCCCUUUCUAAGAGCUGUCCCCGCUUAGUUUUAGAAGUAC,0.728
AUACGAAGAUCUUCUCAGAUGCAAUUUUUCUUUUUCAUUUUUUAAAACUUCUAAAAAAGGUCAUGAGAUAAAACAGCUAUUCUUAUGCCUAAAUUAACAGUGGAAAAUAC,0.63
CAGGUUCUACCCGGGCGCCUCUGUGUGUUCUACAGCACAGAGGACUUCGGGGAGAUUGAUUGGAUCAGAGCCAUUGGCUGGCUCUGGCUCUGCUUUUCUGCCUUCAGUUA,0.234
UAGCUGCCGCUCCAUCAGGGUUCCAGUGAUCUGUAUUGAUGAGAAGAAGCAGAGGUCUCAGCGUCAUCCAGCUCUGACCAAUCCCUGGACCUGUCUACCUGAGGAGCUCC,0.272
UUUAGUUUAGAAGUGCUAUAUUCCACAAGGGUUAAGUCAAUGAGGUUGGAAGACACCUAUCUUUUUUUUUAAUUCAAAAAGCACAAUCAGUCUUUCCUUUGAAAAUCCAU,0.51
AGGGCACUAGAAUGAUCUUUAGCCUUGCUUGGAUUGAACUAGGAGAUCUUGACUCUGAGGAGAGCCAGCCCUGUAAAAAGCUUGGUCCUCCUGUGACGGGAGGGAUGGUU,1.04
CACCCUCCACACCCCAAAGAGAAAUCCCUUCAAAACAGUUUGGGGCCUGUAGCCAGGGUGGGAGGGGCUUGUGCCCCACAGCCUCACAACCCUUGGGGUCAGUGCACCAA,0.354
AUAGUUAGUGCCACAAGAUAAAUAAAAGAAACUAAAGGAUUACAAUUUGAACUUUUCAAGAAGUAGGUCCUAGUACUUGGGAUCUUGUUAGAUCUGUGCUCUGGAGGUGG,0.335
UUAACUCCGUAAAAAGUGAUUCAGUGGACCGAAGAGGCUCAGAGGGCAGGGGAUGGUGGGGUGAGGCAGAGCACUGUCACCUGCCAGGCAUGGGAGGUCCUGCCAUCCGG,1.09
AUAUAAAAGGUAAGACAGAGUUUGCAAAGCAUUUGUGGCUUUUUGUAGUUUACUUAAGCCAAAAUGUGUUUUUUUCCCCUUGAUAGCUUCGCUAAUAUUUUAAACAGUCC,0.735
UGGAGCAUUCCAUCAAAGUUGGAAUUAGGGGAAGGAGGCCCACUGUCCUCCCCGGUCUCCUGAGAGUCAGACUGCAGGCCCUCCCCUCUCCCACUGCUUCCCUUCAGGUG,0.456

# A few entries again (study 1):
Strand,E-score
GTAGGGCA,-0.0762
CGCTAGTA,0.25
ATATTGAC,0.0607
ATTTCCCC,0.0177
CCGACCCC,0.26
CACAGACG,0.015
AGATAGGG,-0.18
AGAACAGA,-0.149
GAAATACA,-0.174
CCATATCA,-0.121
AAGACACT,-0.0989
ACCAGTAA,-0.0233
ATTTACAC,-0.0426
ATAGGGCC,0.0309
CACTCCAA,-0.191
ATGGACCC,-0.0634
